Published values gathered from unrelated publications.
Numbered parts are unrelated; each lists some results of a single study. Positions count from the first letter of the parent shown.
Chain of UniProt O15294 (whole entry, looked up): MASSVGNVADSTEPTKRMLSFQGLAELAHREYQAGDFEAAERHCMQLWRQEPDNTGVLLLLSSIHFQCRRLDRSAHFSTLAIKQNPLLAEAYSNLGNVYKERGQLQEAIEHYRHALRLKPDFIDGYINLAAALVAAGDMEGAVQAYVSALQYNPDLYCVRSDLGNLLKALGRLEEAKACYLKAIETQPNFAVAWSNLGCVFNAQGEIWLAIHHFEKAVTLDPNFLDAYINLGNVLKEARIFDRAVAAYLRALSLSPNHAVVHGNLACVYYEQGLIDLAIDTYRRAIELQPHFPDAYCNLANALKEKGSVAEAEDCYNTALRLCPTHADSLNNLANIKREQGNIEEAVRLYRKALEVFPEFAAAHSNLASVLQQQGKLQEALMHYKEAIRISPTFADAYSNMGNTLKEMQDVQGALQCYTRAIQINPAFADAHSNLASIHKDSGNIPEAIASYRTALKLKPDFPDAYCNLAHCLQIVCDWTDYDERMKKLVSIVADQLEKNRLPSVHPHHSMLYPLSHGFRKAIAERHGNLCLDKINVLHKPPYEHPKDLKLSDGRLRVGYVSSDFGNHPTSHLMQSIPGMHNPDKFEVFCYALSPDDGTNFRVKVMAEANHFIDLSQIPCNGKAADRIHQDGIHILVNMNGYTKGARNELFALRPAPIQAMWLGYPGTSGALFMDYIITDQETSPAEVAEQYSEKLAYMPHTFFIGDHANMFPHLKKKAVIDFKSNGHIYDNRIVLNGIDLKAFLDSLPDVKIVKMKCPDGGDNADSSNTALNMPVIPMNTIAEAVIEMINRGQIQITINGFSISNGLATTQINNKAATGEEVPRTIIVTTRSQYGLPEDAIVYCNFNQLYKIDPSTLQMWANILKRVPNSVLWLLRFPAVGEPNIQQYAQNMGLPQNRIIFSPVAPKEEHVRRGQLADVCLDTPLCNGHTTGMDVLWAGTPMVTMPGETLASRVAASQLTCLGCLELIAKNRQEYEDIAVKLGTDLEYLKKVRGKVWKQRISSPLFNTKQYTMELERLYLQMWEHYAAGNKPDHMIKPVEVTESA

Series 1
Target: CCNA2, cyclin fold, Cln2 fusion (human)
Method: yeast growth competition, sequencing
Sample: yeast
Setting: strong parent motif
Baseline: not given
Reading: higher = stronger binding
Starting sequence: viral docking peptide; KGVKRKLFAEDSS; partner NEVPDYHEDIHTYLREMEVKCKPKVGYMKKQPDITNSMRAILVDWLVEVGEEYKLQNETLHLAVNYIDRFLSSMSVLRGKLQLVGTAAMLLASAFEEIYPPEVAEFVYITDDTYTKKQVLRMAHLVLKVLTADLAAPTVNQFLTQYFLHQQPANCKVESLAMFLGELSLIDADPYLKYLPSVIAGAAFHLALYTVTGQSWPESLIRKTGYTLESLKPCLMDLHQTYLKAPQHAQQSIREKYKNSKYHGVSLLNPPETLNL
Change	normalised enrichment score
A9I	6.05
F8S	0.0886
F8I	1.42
F8H	0.52
D11G	6.49
S12R	6.28
D11L	6.12
V3D	0.081
G2E	6.1
A9G	6.49
R5P	0.728
K6D	1.24
L7Y	0.622
E10W	4.76
D11V	6.02
A9M	6.27
R5V	3.14
V3K	1.21
K6I	4.8
F8E	0.481
G2S	6.53
F8D	-0.197
F8G	0.792
G2V	5.99
K4P	4.3

Series 2
Target: Histone acetyltransferase KAT6A, winged helix 2, GST fusion (KAT6A, Homo sapiens, UniProt Q92794, residues 85-181)
Method: protein binding microarray
Molecule type: double-stranded DNA, one strand shown
Sample: in vitro
Tested at: not given
Setting: 8-mer, flanks averaged, mean of 2 arrays, mostly near background
Baseline: not given
Reading: higher = stronger binding
Residues (chain): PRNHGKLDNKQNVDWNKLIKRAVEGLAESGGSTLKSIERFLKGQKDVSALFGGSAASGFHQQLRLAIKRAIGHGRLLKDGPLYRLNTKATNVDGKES
Strand	E-score
AGGTCTAA	-0.023
TCAGCGAA	-0.00091
CCAATCCG	0.106
GTCTACGA	-0.209
CTTGCGTA	0.0522
ACAAGTAC	-0.184
GAGCGCGC	0.182
GGTGGGCA	-0.0595

Series 3
Target: Transcription factor Sp1 (SP1, Homo sapiens, UniProt P08047, residues 1-785, full length assumed)
Chain of UniProt P08047 (whole entry, looked up): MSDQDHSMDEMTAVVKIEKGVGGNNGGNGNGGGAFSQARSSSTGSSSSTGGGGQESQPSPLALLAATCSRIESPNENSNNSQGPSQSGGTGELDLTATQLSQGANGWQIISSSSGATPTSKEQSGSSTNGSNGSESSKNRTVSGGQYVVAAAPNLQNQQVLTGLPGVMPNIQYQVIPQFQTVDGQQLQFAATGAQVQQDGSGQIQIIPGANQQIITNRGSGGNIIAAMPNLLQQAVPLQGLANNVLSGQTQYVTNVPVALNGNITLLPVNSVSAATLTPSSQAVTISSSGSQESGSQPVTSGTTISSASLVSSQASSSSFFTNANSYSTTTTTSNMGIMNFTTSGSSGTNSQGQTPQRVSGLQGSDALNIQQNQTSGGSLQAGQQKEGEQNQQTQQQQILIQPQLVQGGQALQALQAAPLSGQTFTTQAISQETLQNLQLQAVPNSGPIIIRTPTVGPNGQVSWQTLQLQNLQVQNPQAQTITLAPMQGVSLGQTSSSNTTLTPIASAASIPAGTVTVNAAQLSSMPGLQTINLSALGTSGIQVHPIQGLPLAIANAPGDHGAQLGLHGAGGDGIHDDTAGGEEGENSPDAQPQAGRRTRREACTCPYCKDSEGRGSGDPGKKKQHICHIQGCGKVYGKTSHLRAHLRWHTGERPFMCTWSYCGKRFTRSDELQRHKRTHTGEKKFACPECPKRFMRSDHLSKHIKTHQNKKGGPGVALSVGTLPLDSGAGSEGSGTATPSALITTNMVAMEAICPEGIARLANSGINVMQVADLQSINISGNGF
Method: protein-binding microarray
Molecule type: double-stranded DNA, one strand shown
Sample: in vitro
Tested at: not given
Setting: k-mer, scored over probes, only values ≥0.25
Reading: higher = stronger binding
Strand	E-score
GCCCCATA	0.346
GCACTCCC	0.364
GTGTGTAA	0.265
CCGCCTCC	0.374
AGGGGGAG	0.322
ACATATTC	0.296
AATGTAGT	0.251
CCCCTTTC	0.272

Series 4
Target: Prothrombin, mature alpha-thrombin (F2, Homo sapiens, UniProt P00734)
Method: aptamer microarray, sandwich
Molecule type: DNA with 2'F-ANA
Sample: in vitro
Tested at: 200 nM
Setting: whole 15-mer aptamer, many near background
Added: Cy3 exosite-II aptamer, 400 nM
Reading: higher = stronger binding
Strand: GGTTGGTGTGGTTGG
Modification	mean fluorescence intensity [a.u.]
2'F-ANA at 1 2 8 12 14	115
2'F-ANA at 4 5 7 9 10 12 14	44.6
2'F-ANA at 2 5 7 8 10 11 13 14	104
2'F-ANA at 6 12 13 14	200
2'F-ANA at 1 3 4 5 12	139
2'F-ANA at 3 5 6 9 13	71.8
2'F-ANA at 1 2 3 4 5 7 8 9 11 12	102
2'F-ANA at 1 2 7 8 10 12	61.2

Mixed results
P1: PafA, mature enzyme, eGFP fusion (Elizabethkingia meningoseptica, UniProt Q9KJX5); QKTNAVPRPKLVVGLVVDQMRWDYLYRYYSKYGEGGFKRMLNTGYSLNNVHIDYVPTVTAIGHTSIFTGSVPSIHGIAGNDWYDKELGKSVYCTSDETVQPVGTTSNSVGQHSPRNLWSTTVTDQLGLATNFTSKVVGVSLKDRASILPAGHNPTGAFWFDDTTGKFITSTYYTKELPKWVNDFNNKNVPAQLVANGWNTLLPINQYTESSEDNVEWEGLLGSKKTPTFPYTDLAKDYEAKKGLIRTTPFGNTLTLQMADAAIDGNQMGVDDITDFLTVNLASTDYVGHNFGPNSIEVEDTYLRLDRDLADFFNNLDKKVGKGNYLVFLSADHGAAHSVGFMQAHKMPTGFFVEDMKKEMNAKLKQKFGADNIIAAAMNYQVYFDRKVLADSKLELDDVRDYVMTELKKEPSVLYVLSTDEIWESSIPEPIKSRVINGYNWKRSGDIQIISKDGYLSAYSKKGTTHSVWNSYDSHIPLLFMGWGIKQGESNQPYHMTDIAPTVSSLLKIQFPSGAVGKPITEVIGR
Substance	target	assay	system	setting	scale	quantity	result
SNFMPFYIIQVKADT	OGT (Homo sapiens, UniProt O15294)	binding, phage display NGS	peptide	panning round 2	baseline: input library	minimum log2 enrichment ratio	4.23
P1 Y325G	tungstate, free oxyanion	microfluidic competitive inhibition	in vitro, cell-free expressed	not given, derived from inhibition constants, unchanged parent 2230 nM	lower = stronger binding	oxyanion analog dissociation constant	1.32 µM

Repeated from above (series 2):
Strand	E-score
GAGCGCGC	0.182
GGTGGGCA	-0.0595
ACAAGTAC	-0.184
CCAATCCG	0.106
AGGTCTAA	-0.023
CTTGCGTA	0.0522
GTCTACGA	-0.209
TCAGCGAA	-0.00091
